# Measurements collected from several papers.
# A part holds a random share of what one study measured. Substitutions count along the parent as printed.

# Study 1
# Target: Interferon regulatory factor 3, full length, phosphomimetic (IRF3, Homo sapiens, UniProt Q14653, residues 1-427, S386D/S396D/S398D/S402D/T404D/S405D)
# UniProt Q14653, sequence (whole entry, unmodified, looked up): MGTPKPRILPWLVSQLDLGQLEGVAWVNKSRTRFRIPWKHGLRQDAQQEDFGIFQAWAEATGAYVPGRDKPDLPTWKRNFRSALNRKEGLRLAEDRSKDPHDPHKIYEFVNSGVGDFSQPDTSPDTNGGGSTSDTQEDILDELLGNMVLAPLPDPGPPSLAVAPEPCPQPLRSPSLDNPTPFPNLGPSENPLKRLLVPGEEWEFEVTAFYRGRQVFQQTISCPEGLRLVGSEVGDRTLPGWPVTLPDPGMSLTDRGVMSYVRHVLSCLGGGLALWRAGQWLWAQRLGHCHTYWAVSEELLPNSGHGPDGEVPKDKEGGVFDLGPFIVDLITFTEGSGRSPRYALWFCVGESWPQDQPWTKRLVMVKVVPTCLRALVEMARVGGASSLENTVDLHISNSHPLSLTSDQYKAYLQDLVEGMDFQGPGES
# Technique: protein-binding microarray
# Form: double-stranded DNA, one strand shown
# Medium: in vitro
# Tested at: 2540 nM top
# Setting: 60-bp whole probe
# Added: salmon DNA 0.4 mg/ml
# Relative to: random background probes
# Reading: higher = stronger binding
# Constant ends, left off below: GCCTAGCAC … GTCTTGATTCGCTTGACGCTGCTG
Strand,fitted relative affinity
GACGGTTTCGGGTTTCGAGACGTGCTA,5.83 z-score
GACGGACTGGGGTATCGGGATGTGCTA,-0.387 z-score
TTAGGTATCGGGACAGGGTTAGTGCTA,0.88 z-score
GACGAACTGAGTTTCGAAACGTGCTAG,2.83 z-score
GTCCACTCCAGACCGTTTGCGTGCTAG,0.325 z-score
GACGATCTCAGTTTCGCGACGTGCTAG,1.79 z-score
TTGAGTCTTCTCCTCTAGGTGTGCTAG,-0.625 z-score
TCATATATTTGCTTCAGACTGTGCTAG,0.413 z-score
TTAGATATCAGTAGCGATTAGTGCTAG,-0.0523 z-score
TCATCTTCCCCTCTCTTACTGTGCTAG,1.98 z-score
GACGGCTTCGGACTGGGGACGTGCTAG,-0.726 z-score
TCAAAAAATGATTGGTTACTGTGCTAG,-0.457 z-score
TCACCTATCAGTTTAATACTGTGCTAG,1.76 z-score
TTTGGTTTCGGTCTCGGTTAGTGCTAG,9.22 z-score
TTAGAACTGGGTTATCGATTAGTGCTA,-0.392 z-score
GCTGGTCACTCTCTGGGCTGGTGCTAG,-0.223 z-score
GAAGATTTCGGGTTTCGAGACGTGCTA,2.49 z-score
GAAAATCAACCAGGTGGTGTGTGCTAG,-0.135 z-score
GACGAACTGCTTCTCCTGACGTGCTAG,-0.196 z-score
TCATCTGTCATGTTTGTCACTGTGCTA,0.324 z-score

# Study 2
# Target: Max-binding protein MNT, bHLH-zipper, MAX partner unstated (MNT, Homo sapiens, UniProt Q99583, residues 220-300)
# Technique: protein-binding microarray
# Form: double-stranded DNA, one strand shown
# Medium: in vitro
# Tested at: not given
# Setting: k-mer, scored over probes, only values ≥0.25
# Reading: higher = stronger binding
# Target sequence (chain): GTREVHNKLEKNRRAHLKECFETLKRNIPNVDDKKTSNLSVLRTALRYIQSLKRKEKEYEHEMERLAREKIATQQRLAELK
Strand,E-score
AGATGCAC,0.258
CATGCTGC,0.413
CGTGATAA,0.295
CAAACCAC,0.256
ACCCACCT,0.295
CGCATGAG,0.316
CGCACGCA,0.355
ACCATGCT,0.409
ACCCACGC,0.396
CACCTGCC,0.26
CATGCGTC,0.409
GAGCATGA,0.319
CGTGGTAC,0.371
CGTGCTAC,0.397
CCGACACG,0.252
ACACCATG,0.331
CATGCGAA,0.275
CCATGCCA,0.313
GACACGCC,0.363
GACACGCA,0.304

# Study 3
# Target: Histone acetyltransferase KAT6A, both winged helices, GST fusion (KAT6A, Homo sapiens, UniProt Q92794, residues 1-181)
# Technique: protein binding microarray
# Form: double-stranded DNA, one strand shown
# Medium: in vitro
# Tested at: not given
# Setting: 8-mer, flanks averaged, mean of 2 arrays, mostly near background
# Relative to: not given
# Reading: higher = stronger binding
# Residues (chain): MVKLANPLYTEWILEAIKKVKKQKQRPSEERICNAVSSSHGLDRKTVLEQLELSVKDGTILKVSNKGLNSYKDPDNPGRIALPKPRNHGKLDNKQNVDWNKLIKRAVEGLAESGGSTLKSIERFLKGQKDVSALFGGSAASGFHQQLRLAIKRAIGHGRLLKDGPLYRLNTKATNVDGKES
Strand,E-score
GGGACCAC,0.0351
CTTATGCA,-0.155
CCCCATGC,0.0213
TAGCTCCA,-0.165
CCACCTGA,-0.196
CCCATTCC,-0.298
ACGGTTGA,-0.0158
AGCCGTTC,0.165
ATGTATCC,0.0193
ATCGATCG,-0.0542
CGTAGTTC,0.0235
TGTATTAA,-0.0387
CTGCGCCC,0.0731
AAGCCTAA,-0.175
CACAGTTA,0.0172
CACCTCAA,-0.166
CAGGTTCG,-0.101
ACTGACTG,0.0272
ATATGGGC,-0.0188

# Study 4
# Target: CCNB1, cyclin fold, Cln2 fusion (human)
# Technique: yeast growth competition, sequencing
# Medium: yeast
# Setting: strong parent motif
# Relative to: not given
# Reading: higher = stronger binding
# Starting sequence: CCP110 docking peptide (human); EKVKRRLDLDIDG
Substitution,normalised enrichment score
EKVKRRADLDIDG [L7A],-0.297
EKVKRRLDLDIDA [G13A],1.45
EKVKRALDLDIDG [R6A],1.33
EAVKRRLDLDIDG [K2A],1.5
AKVKRRLDLDIDG [E1A],1.6
EKVKRRLDADIDG [L9A],0.11
EKVKRRLDFDIDG [L9F],5.24

# Study 5
# Target: ABI1, truncated, D143A, DHFR fusion (Arabidopsis thaliana)
# Technique: DHFR PCA, deep sequencing
# Medium: yeast
# Setting: methotrexate growth selection, single substitutions
# Added: (+)-ABA 0 µM
# Relative to: wild-type fitted maximum
# Reading: higher = stronger binding
# Starting sequence: PYL1, truncated, DHFR fusion (Arabidopsis thaliana); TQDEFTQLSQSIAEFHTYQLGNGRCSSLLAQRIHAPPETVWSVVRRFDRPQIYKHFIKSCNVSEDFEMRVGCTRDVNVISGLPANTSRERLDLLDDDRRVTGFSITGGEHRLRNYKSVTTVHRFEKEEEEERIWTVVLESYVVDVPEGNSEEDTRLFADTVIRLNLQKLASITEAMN; partner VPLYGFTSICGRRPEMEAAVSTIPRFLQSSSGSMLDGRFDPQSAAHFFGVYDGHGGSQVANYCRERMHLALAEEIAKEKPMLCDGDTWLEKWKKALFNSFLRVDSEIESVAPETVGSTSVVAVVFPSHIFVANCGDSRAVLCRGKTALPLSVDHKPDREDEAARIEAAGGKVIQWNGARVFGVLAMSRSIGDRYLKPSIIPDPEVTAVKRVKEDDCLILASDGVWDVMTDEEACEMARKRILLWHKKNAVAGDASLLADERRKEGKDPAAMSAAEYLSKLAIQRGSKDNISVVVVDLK
Substitution,relative binding score [%]
Q2F,73.8
P37A,19.7
E129F,10.7
Q167F,-6.23
A175K,20.6
T119C,-3.02
E38M,4.79
R99K,40.2
D153L,-1.9
N85W,44.6

# Study 6
# Target: Fragile X messenger ribonucleoprotein 1, C-terminal low-complexity region (Fmr1, Mus musculus, UniProt P35922)
# Technique: RNA Bind-n-Seq
# Form: RNA
# Medium: in vitro
# Tested at: 200 nM
# Setting: whole 134-nt RNA, ends assumed
# Added: 150 mM LiCl
# Relative to: input library
# Reading: higher = stronger binding
# Each molecule: 7-deaza-guanosine replaces G
# Constant ends, left off below: GGGAGUUCUACAGUCCGACGAUC … UGGAAUUCUCGGGUGUCAAGG
Strand,log2 enrichment
GUCCUGUGCUACACAUCGUAUGUACCGAAUCGGGGAAAAAGGGAAAAAGGAAAAAGGGGAAAGUAUUAUGUUACGCCGUUCGGAUCUGCA,0.535
CUCAAGUCCUGUGCUACACAUCGUAUGUACCGAAUCGGGCCGGGCCGGCCGGGGAAAGUAUUAUGUUACGCCGUUCGGAUCUGCACUUCC,0.626
UUGUGAGAGCCACAGGAAAAGCAAGAAGGAGAAGAAGAAAAAGAAAAAGAGGAAACACAAGAAAGAGAAGAAGAAGAAAGACAAAGAGCA,0.738
CACAGACAACACGCACCCACACAGACACAUAGGGAAGGGGUUGGGAUGGGGACAGGGUGCACAGCAGGGCGGGGUAGGACCCCAGCCCCU,0.484
UCCUGUGCUACACAUCGUAUGUACCGAAUCGGGAAAAAGGGGAAAAAGGGAAAAAGGGGAAAGUAUUAUGUUACGCCGUUCGGAUCUGCA,-0.619
GUCCUGUGCUACACAUCGUAUGUACCGAAUCAAACCCAAAUUUUUAAAUUUUUUUAAAAAAGUAUUAUGUUACGCCGUUCGGAUCUGCAC,-1.42
UCCUCAAGUCCUGUGCUACACAUCGUAUGUACCGAAUCGGUGGGGUGGUGGGAAAGUAUUAUGUUACGCCGUUCGGAUCUGCACUUCCAG,0.565

# Other studies, line by line
Substance,target,assay,test system,setting,how to read,measurement,value
"PhoQ, residues 284 288 289 292 302 303 DDMDFR","PhoP, residues 12 14 15 18 19 HEGLL (Escherichia coli, UniProt P23836)","Sort-seq, item: YFP reporter",E. coli,"PhoQ-PhoP variant library, added: 10 µM Mg2+","relative to: high Mg2+ state, higher = stronger signaling",fold induction,1.1

# Repeated from above (study 1):
Strand,fitted relative affinity
GACGGTTTCGGGTTTCGAGACGTGCTA,5.83 z-score
GACGGCTTCGGACTGGGGACGTGCTAG,-0.726 z-score
GCTGGTCACTCTCTGGGCTGGTGCTAG,-0.223 z-score
TCATCTTCCCCTCTCTTACTGTGCTAG,1.98 z-score
TTAGATATCAGTAGCGATTAGTGCTAG,-0.0523 z-score
GACGAACTGAGTTTCGAAACGTGCTAG,2.83 z-score
GACGAACTGCTTCTCCTGACGTGCTAG,-0.196 z-score
TTAGAACTGGGTTATCGATTAGTGCTA,-0.392 z-score
TCAAAAAATGATTGGTTACTGTGCTAG,-0.457 z-score
GAAAATCAACCAGGTGGTGTGTGCTAG,-0.135 z-score
TCATCTGTCATGTTTGTCACTGTGCTA,0.324 z-score
